Published values collected from several papers.
Each numbered part is a random draw from the data of one study; scales do not carry over between parts. ± gives the spread as reported.

Study 1
Target: HIV-1 TAR RNA
Concentration: concentration not given
Temperature: 25 °C
| SMILES | binding entropy term TΔS° |
| --- | --- |
| CC(=O)NCCN(CC(=O)NCCN(CC(=O)NCCN(CC(=O)NCCC(N)=O)C(=O)C[C@@H](N)Cc1ccccc1)C(=O)C[C@@H](N)Cc1ccccc1)C(=O)C[C@@H](N)CCCNC(=N)N | 2.61 ± 0.191 kcal/mol |
| CC(=O)NCCN(CCC(=O)NCCN(CCC(=O)NCCN(CCC(=O)NCCC(N)=O)C(=O)[C@@H](N)Cc1ccccc1)C(=O)[C@@H](N)CCCNC(=N)N)C(=O)[C@@H](N)CCCNC(=N)N | -5.02 ± 0.12 kcal/mol |
| CC(=O)NCCN(CCC(=O)NCCN(CCC(=O)NCCN(CCC(=O)NCCC(N)=O)C(=O)[C@@H](N)CCCNC(=N)N)C(=O)[C@@H](N)Cc1ccccc1)C(=O)[C@@H](N)Cc1ccccc1 | 1.17 ± 0.12 kcal/mol |
| CC(=O)NCCN(CC(=O)NCCN(CC(=O)NCCN(CC(=O)NCCC(N)=O)C(=O)[C@@H](N)CCCNC(=N)N)C(=O)[C@@H](N)Cc1ccccc1)C(=O)[C@@H](N)Cc1ccccc1 | -3.73 ± 0.143 kcal/mol |
| CC(=O)NCCN(CC(=O)NCCN(CC(=O)NCCN(CC(=O)NCCC(N)=O)C(=O)C[C@@H](N)CCCNC(=N)N)C(=O)C[C@@H](N)CCCNC(=N)N)C(=O)C[C@@H](N)Cc1ccccc1 | -1.89 ± 0.311 kcal/mol |

Study 2
Compound: CNCc1ccc2c(c1)N(C(=O)OCc1c(F)c(F)c(F)c(F)c1F)[C@H](CNC(=N)N)[C@H]2NC(=O)C(=O)Nc1ccc(Cl)c(F)c1
Cells: TZM-bl
| organism | assay | test system | IC80 [nM] |
| --- | --- | --- | --- |
| Human immunodeficiency virus 1 | viral infection, Env pseudovirus | 3301.v1.c24 clade AC | 5990 |
| Human immunodeficiency virus 1 | viral infection, Env pseudovirus | 6952.v1.c20 clade CD | 946 |
| Human immunodeficiency virus 1 | viral infection, Env pseudovirus | SC422661.8 clade B | 138 |
| Human immunodeficiency virus 1 | viral infection, Env pseudovirus | 1054_07_TC4_1499 clade B T/F | 104 |
| HIV-1 | pseudovirus infection, Env pseudovirus neutralisation | clade A | 3820 |
| Human immunodeficiency virus 1 | viral infection, Env pseudovirus | 6535.3 clade B | 46 |

Further values, each from its own experiment
| SMILES | target or system | assay | test system | conditions | endpoint | result |
| --- | --- | --- | --- | --- | --- | --- |
| C=C1C[C@](OC)([C@H](O)C(=O)NC[C@@H]2C[C@@H](OC)C(C)(C)[C@@H](C[C@@H](COC)OC)O2)O[C@H](C)[C@@H]1C | A549 | cell viability, sulforhodamine B | – | 72 h, 37 °C, added: 100 µM H2O2 | IC50 | 8 ± 2 nM |
| F[P-](F)(F)(F)(F)F.OC(Cn1cncn1)(Cn1cc(-[c-]2cccc2)nn1)c1ccc(F)cc1F.[Co+3].c1cc[cH-]c1 (racemic) | Trichuris muris | worm motility, Worminator | – | 100 µM, adult females and males | inhibition | > 50% |
| C[C@H](Nc1ncnc(N)c1C#N)c1c(-c2ccccc2)[nH]c2c(Cl)cccc2c1=O | – | – | CB17 SCID mice, xenograft, plasma | oral, 200 mg/kg once daily, day 14 | Cmax | 38.6 ± 4.55 µM |

A few entries again (study 1):
| SMILES | binding entropy term TΔS° |
| --- | --- |
| CC(=O)NCCN(CC(=O)NCCN(CC(=O)NCCN(CC(=O)NCCC(N)=O)C(=O)C[C@@H](N)CCCNC(=N)N)C(=O)C[C@@H](N)CCCNC(=N)N)C(=O)C[C@@H](N)Cc1ccccc1 | -1.89 ± 0.311 kcal/mol |
| CC(=O)NCCN(CC(=O)NCCN(CC(=O)NCCN(CC(=O)NCCC(N)=O)C(=O)[C@@H](N)CCCNC(=N)N)C(=O)[C@@H](N)Cc1ccccc1)C(=O)[C@@H](N)Cc1ccccc1 | -3.73 ± 0.143 kcal/mol |
